Assay results gathered from unrelated publications.
Each numbered part is a random draw from the data of one study; scales do not carry over between parts. Substitutions count along the parent as printed.

Sample 1 — method: RNA Bind-n-Seq; molecule type: RNA; sample: in vitro; concentration: 200 nM; setting: whole 134-nt RNA, ends assumed; added: 150 mM KCl; reference: input library; reading: higher = stronger binding
Target: Fragile X messenger ribonucleoprotein 1, C-terminal low-complexity region (Fmr1, Mus musculus, UniProt P35922)
Oligonucleotide	log2 enrichment
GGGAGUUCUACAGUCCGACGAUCCAAGUCCUGUGCUACACAUCGUAUGUACCGAAUCGGUUUGGGGUUUGGGGUUUGGAAAGUAUUAUGUUACGCCGUUCGGAUCUGCACUUCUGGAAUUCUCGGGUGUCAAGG	-0.128
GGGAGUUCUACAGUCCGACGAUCAAUGCCCACAAGGUCCCUCCCCCAUGGCUGAUUGCCAUGCAGCGAUAUGGACCACCCCCAUCGUAUCCCAACCUGAAAAUCCCUGGGCUGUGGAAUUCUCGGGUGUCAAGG	0.0146
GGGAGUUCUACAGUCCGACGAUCCUCAAGUCCUGUGCUACACAUCGUAUGUACCGAAUCGGAAGGGAAGGGGAAGGAAAGUAUUAUGUUACGCCGUUCGGAUCUGCACUUCCAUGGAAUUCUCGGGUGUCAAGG	-0.0412
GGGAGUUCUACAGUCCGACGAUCGCAUAAUGGAUAUUUUUUAACUUGGCGAGAUGUGUCUCUCAAUCCUGUGGCUUUGGUGAGAGAGUGUGCAGAGAGCAAUGAUAGCAAAUAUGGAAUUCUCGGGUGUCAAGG	0.298
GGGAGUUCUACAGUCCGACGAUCCCUCAAGUCCUGUGCUACACAUCGUAUGUACCGAAUCGGUGGGGUGGGGUGGGAAAGUAUUAUGUUACGCCGUUCGGAUCUGCACUUCCAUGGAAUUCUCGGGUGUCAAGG	1.3
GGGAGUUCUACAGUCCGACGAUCCCUGUGCUACACAUCGUAUGUACCGAAUCGGGGAAAAAAAGGGGAAAAAGGGGUUUGGGGAAAGUAUUAUGUUACGCCGUUCGGAUCUGCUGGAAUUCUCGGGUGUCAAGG	0.2
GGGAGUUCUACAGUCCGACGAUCAGUCCUGUGCUACACAUCGUAUGUACCGAAUCGGAAAAAAGGAAAAAAGGAAAAAAGGAAAGUAUUAUGUUACGCCGUUCGGAUCUGCACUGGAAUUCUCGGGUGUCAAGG	-0.947
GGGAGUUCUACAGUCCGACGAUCCCUGUGCUACACAUCGUAUGUACCGAAUCGGGUUUUUUUGGUUUUUUUGGUUUUUUUGGGGAAAGUAUUAUGUUACGCCGUUCGGAUCUGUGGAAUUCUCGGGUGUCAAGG	-1.02
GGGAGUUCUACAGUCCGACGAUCACCGUGCAGGUGGGCAUCUUUGGGAAGUGGGGCAAGGGGGGGAUAGGGAGGGGGGUAACACUUUGGGAACAGGUGGUCCCAGGUCGUUUCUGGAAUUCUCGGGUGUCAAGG	0.791
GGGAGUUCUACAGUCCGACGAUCUGGAUGGACACCAUUAUCGUCGUGUGGCACGGGUUGACCUAAGGAAGAAGACAGAGACUUUCUCCACAAGAAGGGUUAAGUCUGGGCUGUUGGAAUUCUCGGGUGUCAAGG	-0.115

Sample 2 — target: CCNE2, cyclin fold, Cln2 fusion (human); method: yeast growth competition, sequencing; sample: yeast; setting: weak parent motif; reference: not given; reading: higher = stronger binding
Parent: SLBP docking peptide (human); ARYKRKLLINDFG
Variant	normalised enrichment score
R5F	-0.254
L8P	0.555
K6A	0.949
I9D	0.12
L8K	-0.17
N10S	0.48
Y3H	0.812
L8E	1.21
N10H	0.611
I9E	0.883

Sample 3 — method: DHFR PCA, deep sequencing; sample: yeast; added: (+)-ABA 58 µM; reference: wild-type fitted maximum; reading: higher = stronger binding
Target: ABI1, truncated, D143A, DHFR fusion (Arabidopsis thaliana)
Setting: methotrexate growth selection, single substitutions
Parent: PYL1, truncated, DHFR fusion (Arabidopsis thaliana); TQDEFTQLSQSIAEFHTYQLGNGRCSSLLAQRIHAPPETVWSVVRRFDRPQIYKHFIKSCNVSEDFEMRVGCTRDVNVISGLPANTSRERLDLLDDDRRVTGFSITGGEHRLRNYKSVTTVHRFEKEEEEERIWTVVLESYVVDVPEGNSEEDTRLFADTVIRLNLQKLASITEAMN; partner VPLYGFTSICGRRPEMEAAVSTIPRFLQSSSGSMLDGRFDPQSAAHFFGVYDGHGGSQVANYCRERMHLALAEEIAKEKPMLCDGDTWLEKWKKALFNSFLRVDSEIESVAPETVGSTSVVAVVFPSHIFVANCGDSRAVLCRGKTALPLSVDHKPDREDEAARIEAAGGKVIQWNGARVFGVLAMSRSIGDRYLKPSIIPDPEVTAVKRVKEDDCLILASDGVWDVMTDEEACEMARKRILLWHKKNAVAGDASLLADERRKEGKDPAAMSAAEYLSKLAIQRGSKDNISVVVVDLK
Variant	relative binding score
S63W	49.8%
T101R	-0.0194%
V43R	16%
G102R	33.8%
F66H	73.1%
Q7G	93.8%
V161E	1%
D48H	30.2%

Further values, each from its own experiment
Molecule	target	test	system	conditions	scale	quantity	value
PhoQ, residues 284 288 289 292 302 303 SSTMSV	PhoP, residues 12 14 15 18 19 NHFRA (Escherichia coli, UniProt P23836)	Sort-seq, item: YFP reporter	E. coli	PhoQ-PhoP variant library, added: 10 µM Mg2+	reference: high Mg2+ state, higher = stronger signaling	fold induction	2.52
